Results of several laboratories.
Each numbered part is a random draw from the data of one study; scales do not carry over between parts. Changes are numbered by the printed parent chain.

Set 1
Target: Runt-related transcription factor 3, Runt domain (RUNX3, Homo sapiens, UniProt Q13761, residues 53-186)
Sequence of UniProt Q13761 (53-186, looked up): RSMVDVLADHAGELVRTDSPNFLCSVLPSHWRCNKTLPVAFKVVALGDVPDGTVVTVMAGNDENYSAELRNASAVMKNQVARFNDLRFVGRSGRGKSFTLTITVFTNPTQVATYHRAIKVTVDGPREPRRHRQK
Technique: protein-binding microarray
Form: hairpin DNA
Matrix: in vitro
Concentration: not given
Setting: whole hairpin DNA, median over replicate spots
Baseline: not given
Reading: higher = stronger binding
| Strand | median fluorescence [a.u.] |
| --- | --- |
| GAGGCCTGTTGTGATTGGCCTCCTGGCCAATCACAACAGGCCTCACACTC | 4290 |
| GAGGCCTGTTGCAGTTGGCCTCCTGGCCAACTGCAACAGGCCTCACACTC | 4630 |
| CTCAGTTCTGTGGGCTCGACTCCTGTCGAGCCCACAGAACTGAGACACTC (5mC at 17) | 4410 |
| CTCAGTTCTGTGGGCTGGACTCCTGTCCAGCCCACAGAACTGAGACACTC (5mC at 35) | 3770 |
| GAGGCCTGTTGCGGCTGGCCTCCTGGCCAGCCGCAACAGGCCTCACACTC (5mC at 15) | 5800 |
| GAGGCCTGTTGTGGTTTGCCTCCTGGCAAACCACAACAGGCCTCACACTC | 5950 |
| GAGGCCTGTTGTGGTCGGCCTCCTGGCCGACCACAACAGGCCTCACACTC (5mC at 16 28) | 5600 |
| CTCAGTTCTCTGGGCTGGACTCCTGTCCAGCCCAGAGAACTGAGACACTC (5mC at 10) | 3810 |
| GAGGCCTGTCGCGGTTGGCCTCCTGGCCAACCGCGACAGGCCTCACACTC (5mC at 19) | 6120 |
| GAGGCCGGTTGCGGTTGGCCTCCTGGCCAACCGCAACCGGCCTCACACTC (5mC at 38) | 10000 |
| GAGGCCCAACCGCAACAGCCTCCTGGCTGTTGCGGTTGGGCCTCACACTC (5mC at 11) | 5440 |
| GAGGCCTGTTGCGGTTGGCCTCCTGGCCAACCGCAACAGGCCTCACACTC (5mC at 37) | 7730 |
| GAGGCCTGTCGCGGCGGGCCTCCTGGCCCGCCGCGACAGGCCTCACACTC (5mC at 15) | 6100 |
| GAGGCCAGTTGCGGTTGGCCTCCTGGCCAACCGCAACTGGCCTCACACTC | 8350 |
| GAGGCCTGTTGTGGTCGGCCTCCTGGCCGACCACAACAGGCCTCACACTC (5mC at 28) | 6450 |
| GAGGCCCAACGGCAACAGCCTCCTGGCTGTTGCCGTTGGGCCTCACACTC | 4990 |
| GAGGCCTGTTGCCGTTGGCCTCCTGGCCAACGGCAACAGGCCTCACACTC (5mC at 13) | 4760 |
| GAGGCCCAAGCGCAACAGCCTCCTGGCTGTTGCGCTTGGGCCTCACACTC | 5200 |
| GAGGCCCGACCGCAACAGCCTCCTGGCTGTTGCGGTCGGGCCTCACACTC (5mC at 7) | 8760 |
| GAGGCCTCGTGCGGTTGGCCTCCTGGCCAACCGCACGAGGCCTCACACTC (5mC at 36) | 6000 |

Set 2
Target: Fragile X messenger ribonucleoprotein 1, C-terminal low-complexity region (Fmr1, Mus musculus, UniProt P35922)
Technique: RNA Bind-n-Seq
Form: RNA
Matrix: in vitro
Concentration: 200 nM
Setting: whole 134-nt RNA, ends assumed
Together with: 150 mM LiCl
Baseline: input library
Reading: higher = stronger binding
Each molecule: 7-deaza-guanosine replaces G
| Strand | log2 enrichment |
| --- | --- |
| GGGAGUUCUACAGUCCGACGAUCUGGCCCUGGUGGCAUGCGGGGAGGAAGAGGUGGCCUCAUGGAUCGUGGUGGUCCCGGUGGAAUGUUCAGAGGUGGCCGUGGCGGAGACAGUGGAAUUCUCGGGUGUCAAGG | -0.501 |
| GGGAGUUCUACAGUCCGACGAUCUCCUGUGCUACACAUCGUAUGUACCGAAUCGGUUUUUUGGUUUUUUGGGGUUUUUUGGGGAAAGUAUUAUGUUACGCCGUUCGGAUCUGCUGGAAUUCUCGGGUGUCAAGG | -1.34 |
| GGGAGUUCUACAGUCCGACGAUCUUGACUAUAUUGUGGAGUAUGACUAUGAUGCUGUACAUGAUGAUGAAUUAACUAUUCGAGUUGGAGAAAUCAUCAGGAAUGUGAAAAAGCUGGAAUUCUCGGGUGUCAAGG | -2.62 |
| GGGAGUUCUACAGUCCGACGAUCUGGCAGCGGCCAUGGACCGCUUCGUUUGGACCAGCGGCCUCCUGGAGAUCAACGAGACCCUGGUGAUCCAGCAGCGCGGGGUGCGAAUCUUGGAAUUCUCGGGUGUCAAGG | -2.5 |
| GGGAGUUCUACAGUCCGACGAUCUAACUUUAGAGGAGGAUCUGAUGGAUAUGGCAGUGGACGUGUAUUUGGGGAUGGCUAUAAUGGGUAUGGAGGAGGACCUGGAGGUGGCAAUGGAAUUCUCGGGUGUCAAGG | 0.284 |
| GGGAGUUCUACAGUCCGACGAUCCCUCAAGUCCUGUGCUACACAUCGUAUGUACCGAAUCGGUUUUUGGAGGAGGAAAGUAUUAUGUUACGCCGUUCGGAUCUGCACUUCCAGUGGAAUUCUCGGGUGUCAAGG | -0.455 |
| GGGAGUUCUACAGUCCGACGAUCGCAGGAAGUAAAAACAAAUGGAAAUGCUUCGGAUAGAAACAGGGGUGGGGGUUGCUAAGGAAAGGGUGGGAUGGGAGUGGGUAAAGAGUUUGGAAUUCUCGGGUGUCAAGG | 1.58 |
| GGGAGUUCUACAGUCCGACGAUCGCAGGAAGUAAAAACAAAUGGAAAUGCUUCGGAUAGUGGUAGGGGUGGGGGUUGCUAAGGAAAGGGUGGGAUGGGAGUGGGUAAAGAGUUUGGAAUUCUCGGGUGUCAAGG | 1.74 |
| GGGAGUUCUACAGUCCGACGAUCGUCCUGUGCUACACAUCGUAUGUACCGAAUCGGGAAAAAGGGAAAAAGGAAAAAGGGGAAAGUAUUAUGUUACGCCGUUCGGAUCUGCACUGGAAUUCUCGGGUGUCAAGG | 0.255 |
| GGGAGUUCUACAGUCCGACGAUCCUCAAGUCCUGUGCUACACAUCGUAUGUACCGAAUCGGAGGGGAGGGGAGGGGAAAGUAUUAUGUUACGCCGUUCGGAUCUGCACUUCCAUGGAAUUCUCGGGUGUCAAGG | 0.148 |
| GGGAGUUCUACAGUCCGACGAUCGCCACUGUUCACCAGUCCUACCCACACCAUGCCACACAGCUCCAUGCCCACCAGCCGCAGCCGGCUACCACGCCUACUGGAAGCCAGCCGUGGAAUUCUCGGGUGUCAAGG | 0.916 |

Set 3
Target: CCNE1, cyclin fold, Cln2 fusion (human)
Technique: yeast growth competition, sequencing
Matrix: yeast
Setting: weak parent motif
Baseline: not given
Reading: higher = stronger binding
Parent: SAMHD1 docking peptide (human); ASKSRVQLFKDDP
| Substitution | normalised enrichment score |
| --- | --- |
| K10Q | 0.314 |
| K10N | 0.55 |
| F9Y | 0.0535 |
| S2M | 0.127 |
| K3W | 0.117 |
| S4L | 0.0987 |
| D12G | 0.293 |
| L8E | 0.267 |
| V6R | 3.38 |
| Q7F | 0.297 |
| Q7L | 0.191 |
| K10I | 0.166 |
| S2F | -0.0808 |
| S4A | 1.94 |
| K3I | 0.137 |
| L8R | -0.26 |
| K3V | 0.331 |
| R5M | -0.166 |

Set 4
Target: UBE2V2 UBC core domain (UniProt Q15819)
Technique: yeast two-hybrid
Matrix: yeast
Setting: mostly zero background
Baseline: not given
Reading: higher = stronger interaction
B1: BFAR RING domain (UniProt Q9NZS9); chain GPQISVSEFSCHCCYDILVNPTTLNCGHSFCRHCLALWWASSKKTECPECREKWEGFPKVS
B2: RING1 RING domain (UniProt Q06587); chain SPRSLHSELMCPICLDMLKNTMTTKECLHRFCSDCIVTALRSGNKECPTCRKKLVSKRSLR
B3: RUFY1 RING domain (UniProt Q96T51); chain QALKGHAWLKDDEATHCRQCEKEFSISRRKHHCRNCGHIFCNTCSSNELALPSYPKPVRVCDSCHTLLLQRCSSTAS
B4: MARCHF1 RING domain (UniProt Q8TCQ1); chain TAPRSQSRLSVCPSTQDICRICHCEGDEESPLITPCRCTGTLRFVHQSCLHQWIKSSDTRCCELCKYDFIMETKLKPLRKWE
B5: MID2 RING domain (UniProt Q9UJV3); chain KMETLESELTCPICLELFEDPLLLPCAHSLCFSCAHRILVSSCSSGESIEPITAFQCPTCRYVISLNHRGL
B6: CNOT4 RING domain (UniProt O95628); chain MSRSPDAKEDPVECPLCMEPLEIDDINFFPCTCGYQICRFCWHRIRTDENGLCPACRKPYPED
B7: HLTF RING domain (UniProt Q14527); chain LILSSGSDEECAICLDSLTVPVITHCAHVFCKPCICQVIQNEQPHAKCPLCRNDIHEDNLLE
Residues (chain): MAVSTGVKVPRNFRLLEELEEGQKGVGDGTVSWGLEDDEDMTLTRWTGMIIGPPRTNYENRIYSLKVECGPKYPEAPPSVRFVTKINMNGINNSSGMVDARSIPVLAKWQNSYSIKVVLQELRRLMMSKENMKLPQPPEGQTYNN
| Molecule | lacZ reporter activity |
| --- | --- |
| B1 (BFAR RING domain) | 0 |
| B2 (RING1 RING domain) | 0 |
| FAEQPSVKLCCQLCCSVFKDPVITTCGHTFCRRCALKSEKCPVDNVKLTVVVNNI (TRAF7 RING domain (UniProt Q6Q0C0)) | 0 |
| ASEEEFQFLRCQQCQAEAKCPKLLPCLHTLCSGCLEASGMQCPICQAPWPLGADTP (PML RING domain (UniProt P29590)) | 0 |
| B3 (RUFY1 RING domain) | 0 |
| FDPPLESKYECPICLMALREAVQTPCGHRFCKACIIKSIRDAGHKCPVDNEILLENQLFP (TRAF6 RING domain (UniProt Q9Y4K3)) | 0 |
| B4 (MARCHF1 RING domain) | 0 |
| B5 (MID2 RING domain) | 0 |
| B6 (CNOT4 RING domain) | 0 |
| EIKEYKARLTCPCCNTRKKDAVLTKCFHVFCFECVRGRYEARQRKCPKCNAAFGAHDFHR (RNF40 RING domain (UniProt O75150)) | 0 |
| B7 (HLTF RING domain) | 0 |
| ASPKIFQKTKCSICNSALELPSVHFLCGHSFHQHCFESYSESDADCPTCLPENRKVMDMI (VPS11 RING domain (UniProt Q9H270)) | 0 |

Set 5
Target: ABI1, truncated, D143A, DHFR fusion (Arabidopsis thaliana)
Technique: DHFR PCA, deep sequencing
Matrix: yeast
Setting: methotrexate growth selection, single substitutions
Together with: (+)-ABA 0.11 µM
Baseline: wild-type fitted maximum
Reading: higher = stronger binding
Parent: PYL1, truncated, DHFR fusion (Arabidopsis thaliana); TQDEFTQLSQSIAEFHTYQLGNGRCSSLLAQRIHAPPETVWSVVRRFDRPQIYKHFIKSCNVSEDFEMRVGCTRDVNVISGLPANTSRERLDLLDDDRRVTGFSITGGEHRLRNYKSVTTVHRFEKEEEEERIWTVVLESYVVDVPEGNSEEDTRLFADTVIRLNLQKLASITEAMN; partner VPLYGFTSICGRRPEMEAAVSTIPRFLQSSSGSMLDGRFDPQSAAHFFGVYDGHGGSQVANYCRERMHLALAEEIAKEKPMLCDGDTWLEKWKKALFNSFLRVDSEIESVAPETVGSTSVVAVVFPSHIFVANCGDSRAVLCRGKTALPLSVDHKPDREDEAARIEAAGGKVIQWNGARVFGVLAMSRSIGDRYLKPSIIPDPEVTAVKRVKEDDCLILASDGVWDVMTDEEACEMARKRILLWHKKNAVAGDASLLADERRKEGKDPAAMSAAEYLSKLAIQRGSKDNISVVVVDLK
| Substitution | relative binding score |
| --- | --- |
| E174I | -1.41% |
| E64H | 28.5% |
| R69G | 12.1% |
| H34W | 4.8% |
| V136A | 5.38% |
| S63D | 36.3% |
| E89A | -5.59% |
| L28A | 1.13% |
| E152H | 13.9% |
| A35E | 4.52% |
| H122L | -5.54% |
| S140L | 2.64% |
| G108A | 3.13% |
| L20D | 28.9% |
| S140P | 6.15% |
| L164D | -3.05% |
| Q7V | 30.4% |
| G21N | 18.9% |
| Q51M | 3.33% |
| D96N | 5.77% |
| Y115L | -2.69% |
| A158E | -5.9% |
| V137Q | -1.94% |
| K126R | 49.8% |
| L166R | 6.81% |

A few entries again (set 1):
| Strand | median fluorescence [a.u.] |
| --- | --- |
| GAGGCCCAACGGCAACAGCCTCCTGGCTGTTGCCGTTGGGCCTCACACTC | 4990 |
| GAGGCCGGTTGCGGTTGGCCTCCTGGCCAACCGCAACCGGCCTCACACTC (5mC at 38) | 10000 |
| GAGGCCTGTTGCCGTTGGCCTCCTGGCCAACGGCAACAGGCCTCACACTC (5mC at 13) | 4760 |
| GAGGCCTGTTGTGGTCGGCCTCCTGGCCGACCACAACAGGCCTCACACTC (5mC at 16 28) | 5600 |
| GAGGCCTGTTGTGGTCGGCCTCCTGGCCGACCACAACAGGCCTCACACTC (5mC at 28) | 6450 |
| GAGGCCTGTTGTGGTTTGCCTCCTGGCAAACCACAACAGGCCTCACACTC | 5950 |
| CTCAGTTCTGTGGGCTGGACTCCTGTCCAGCCCACAGAACTGAGACACTC (5mC at 35) | 3770 |
| GAGGCCTCGTGCGGTTGGCCTCCTGGCCAACCGCACGAGGCCTCACACTC (5mC at 36) | 6000 |
| GAGGCCCAAGCGCAACAGCCTCCTGGCTGTTGCGCTTGGGCCTCACACTC | 5200 |
| CTCAGTTCTGTGGGCTCGACTCCTGTCGAGCCCACAGAACTGAGACACTC (5mC at 17) | 4410 |
